Published values pooled from the literature.
Numbered parts are unrelated; each lists some results of a single study. Several values in a cell are separate wells, animals, samples, runs or records.

Set 1
Organism: Sarcocystis neurona
Read-out: parasite growth
Strain: GFP/luciferase reporter
Concentration: 10 µM
Notes: hit confirmation screen
`O=C1CN(/N=C/c2ccc(-c3ccc([N+](=O)[O-])cc3)o2)C(O)=N1` has an inhibition of 97.7%.
`COc1cccc2c1C(=O)c1c(O)c3c(c(O)c1C2=O)C[C@@](O)(C(=O)CO)C[C@@H]3O[C@H]1C[C@H](N)[C@@H](O)[C@H](C)O1` gave an inhibition of 98.5%.
The inhibition of `C[C@H]1[C@H](OC(=O)CCC(=O)O)O[C@@H]2O[C@@]3(C)CC[C@H]4[C@H](C)CC[C@@H]1[C@@]24OO3` is reported as 92.1%.
With `COc1cc(NC(C)CCCN)c2ncccc2c1` (stereo not shown) the inhibition was 100%.
With `CCN(CC)C(=S)SSC(=S)N(CC)CC` the inhibition was 99.9%.
The inhibition of `COC(=O)C[C@](O)(CCCC(C)(C)O)C(=O)O[C@@H]1C(OC)=C[C@]23CCCN2CCc2cc4c(cc2[C@H]13)OCO4` is reported as 99.9%.
`O=c1[nH]cc(F)c(=O)[nH]1` gave an inhibition of 99%.
`O=c1c(-c2ccccc2)c1-c1ccccc1` has an inhibition of 99.2%.
The inhibition of `COc1cccc2c1C(=O)c1c(O)c3c(c(O)c1C2=O)C[C@@](O)(C(C)=O)C[C@@H]3O[C@H]1C[C@H](N)[C@H](O)[C@H](C)O1` is reported as 99.7%.
The inhibition of `OCCN1CCN(CCCN2c3ccccc3Sc3ccc(Cl)cc32)CC1` is reported as 99.2%.
`OCCN1CCN(CCCN2c3ccccc3Sc3ccc(C(F)(F)F)cc32)CC1` has an inhibition of 3.8%.

Set 2
SMILES: COc1cc(C(=O)N2CCC(N3CCN(C)CC3)CC2)ccc1Nc1ncc2c(n1)N(C)c1ccccc1C(=O)N2C
For MARK2 (human); probe labelling, KiNativ ATP probe; human PBMC lysate; concentration not given, LYS1 labelled site: inhibition read -1.2%.
The inhibition was 9.1% (NDR2 (human); probe labelling, KiNativ ATP probe; human PBMC lysate; concentration not given, LYS1 labelled site).
It gave -4.2% and -5.4% for inhibition (PIP4K2A and PIP4K2B human; KiNativ profiling; human PBMC; 1 µM, ATP site, together with: ATP acyl phosphate probe).
For SLK mouse; KiNativ profiling; mouse brain lysate; 0.1 µM, LYS2 site, together with: ATP acyl phosphate probe: inhibition read 16.1%.
The inhibition was -11.4% (MAP3K3 (human); probe labelling, KiNativ ATP probe; human PBMC lysate; concentration not given, LYS1 labelled site).
For NEK4 (mouse); probe labelling, KiNativ, measured: DLkTQNVFLTR peptide, LYS2 site; brain tissue lysate (mouse); 1 µM, together with: ATP acyl-phosphate probe: inhibition read -27.9%.
For mouse CK1δ and CK1ε; probe labelling, KiNativ ATP probe; mouse brain lysate; 0.1 µM, LYS2 site: inhibition read 12.5%.
The inhibition was -1.6% (CDK5 (mouse); probe labelling, KiNativ ATP probe; mouse brain lysate; 0.1 µM, LYS2 labelled site).
It gave -4.9% for inhibition (human PBMC; probe labeling, inhibitor, KiNativ profiling; cell lysate; concentration not given, domain 1, DFG motif site, together with: ATP acyl-phosphate probe 0.1 µM).
For CSK mouse; KiNativ profiling; mouse brain lysate; 0.1 µM, activation loop site, together with: ADP acyl phosphate probe: inhibition read 2.6%.
For STLK5 (mouse); probe labelling, inhibitor, KiNativ ActivX ADP probe; mouse brain lysate; 1 µM, activation loop peptide: inhibition read 4.6%.
human PBMC; probe labeling, inhibitor, KiNativ profiling, measured: DIkTLNIFLTK; cell lysate; 1 µM, LYS2 site, together with: ATP acyl-phosphate probe — inhibition: 3.3%.

Set 3
Target: High affinity nerve growth factor receptor (NTRK1, Homo sapiens, UniProt P04629)
Chain of UniProt P04629 (whole entry, looked up): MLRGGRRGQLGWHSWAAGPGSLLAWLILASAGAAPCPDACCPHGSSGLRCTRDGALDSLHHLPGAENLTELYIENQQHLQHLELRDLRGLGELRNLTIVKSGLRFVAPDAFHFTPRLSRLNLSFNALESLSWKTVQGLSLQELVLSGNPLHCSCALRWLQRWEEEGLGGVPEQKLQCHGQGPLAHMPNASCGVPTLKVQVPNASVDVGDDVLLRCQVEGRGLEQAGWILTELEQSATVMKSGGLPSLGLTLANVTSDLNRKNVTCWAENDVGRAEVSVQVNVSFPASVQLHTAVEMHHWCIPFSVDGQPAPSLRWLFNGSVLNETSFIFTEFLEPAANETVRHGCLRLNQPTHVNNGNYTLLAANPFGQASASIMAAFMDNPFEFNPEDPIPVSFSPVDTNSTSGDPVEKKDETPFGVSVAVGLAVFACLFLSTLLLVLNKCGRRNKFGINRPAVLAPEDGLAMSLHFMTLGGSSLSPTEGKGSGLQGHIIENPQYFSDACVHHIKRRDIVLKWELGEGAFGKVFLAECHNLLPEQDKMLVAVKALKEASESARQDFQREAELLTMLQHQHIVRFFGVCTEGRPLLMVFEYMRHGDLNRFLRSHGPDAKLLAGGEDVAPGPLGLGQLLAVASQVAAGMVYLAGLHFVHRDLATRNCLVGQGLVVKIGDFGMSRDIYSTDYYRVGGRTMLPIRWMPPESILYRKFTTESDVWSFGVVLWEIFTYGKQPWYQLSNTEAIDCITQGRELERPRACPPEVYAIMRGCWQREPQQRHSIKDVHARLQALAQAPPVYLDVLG
Read-out: enzyme activity
Action: inhibitor
Concentration: 0.5 µM
Baseline: control
`Nc1ncnc2c1cnn2-c1ccccc1` has a remaining activity of 96.1%.
`CCCC(=O)Oc1ccc2[nH]c(C(=O)c3cc4ccccc4[nH]3)cc2c1` has a remaining activity of 98.6%.
For `Nc1nccc(-c2c(-c3ccc(F)cc3)ncn2C2CCNCC2)n1`, the remaining activity was 100%.
With `COc1ccc(S(=O)(=O)N(CCO)c2ccccc2CN(C)CC=Cc2ccc(Cl)cc2)cc1` the remaining activity was 110%.
With `O=C1Cc2c([nH]c3ccc([N+](=O)[O-])cc23)-c2ccccc2N1` the remaining activity was 107%.
`Fc1ccc(-c2nc3n(c2-c2ccncc2)CCS3)cc1` has a remaining activity of 99.5%.
`CC(C)(C)n1nc(Cc2cccc3ccccc23)c2c(N)ncnc21` has a remaining activity of 97.8%.
The remaining activity of `CC(=O)c1ccc(N2CCOCC2)cc1O` is reported as 97.2%.
`COc1cc(Nc2c(C#N)cnc3cc(OCCCN4CCN(C)CC4)c(OC)cc23)c(Cl)cc1Cl` has a remaining activity of 106%.
`Oc1ccc(Nc2nc(-c3ccc(Cl)cc3)cs2)cc1` has a remaining activity of 104%.
For `O=C1NC(=O)C(c2c[nH]c3ccccc23)=C1c1c[nH]c2ccccc12`, the remaining activity was 92%.
`CC[n+]1c(/C=C/N(C)c2ccccc2)n(-c2ccccc2)c2ccc(-c3nc4ccccc4s3)cc21` gave a remaining activity of 99.1%.
`Cc1cncc2cccc(S(=O)(=O)N3CCCN(C(=O)CN)C[C@@H]3C)c12` has a remaining activity of 100%.
`O=S(=O)(NCCNC/C=C/c1ccc(Br)cc1)c1cccc2cnccc12` gave a remaining activity of 84.9%.
With `CC#CC(=O)Nc1cc2c(Nc3ccc(F)c(Cl)c3)ncnc2cn1` the remaining activity was 98.5%.
The remaining activity of `CSc1nc(-c2ccnc(N[C@@H](C)c3ccccc3)c2)c(-c2ccc(F)cc2)[nH]1` (racemic) is reported as 91.2%.
`Cc1ccc(NC2=CC(=O)c3sc(C)nc3C2=O)cc1` gave a remaining activity of 80.6%.
`Nc1nc(Nc2ccc(S(N)(=O)=O)cc2)nn1C(=O)c1c(F)cccc1F` gave a remaining activity of 98.8%.
`NC(=O)c1ccc(N(C(N)=O)c2c(F)cccc2F)nc1-c1ccc(F)cc1F` has a remaining activity of 96.3%.
`Cc1cc(Nc2nc(-c3ccccc3)nc3ccccc23)n[nH]1` has a remaining activity of 14.6%.
`N#CC(=C(N)Sc1ccc(N)cc1)c1ccccc1C(F)(F)F` gave a remaining activity of 109%.
`CCc1[nH]c(-c2ccc(OC)cc2)nc1-c1ccncc1` has a remaining activity of 106%.

Single results of other studies
Under “total cell count”, `Cn1cncc1[C@@](O)(COc1ccc(C#N)cc1-c1ccc(OC(F)(F)F)cc1)c1ccc(C#N)cc1` is recorded as 906 and 758 (HEK293T; high-content imaging; 10 µM, 0 h).
